Published values of several laboratories.
Each line is one published result; not all experiments were run side by side. “And” joins repeats or separate records; there may be more than shown. pIC50: −log10 of the molar value. Converted amounts (≈) assume the structure as drawn.
Organism: Staphylococcus aureus

Structure (SMILES) | assay | test system | conditions | how to read | endpoint | value
CN[C@H](CC(C)C)C(=O)N[C@H]1C(=O)N[C@@H](CC(N)=O)C(=O)N[C@H]2C(=N)N[C@H]3C(=O)N[C@H](C(=O)N[C@H](C(=O)NCCCNC(=N)N)c4cc(O)cc(O)c4-c4cc3ccc4O)[C@H](O)c3ccc(c(Cl)c3)Oc3cc2cc(c3O[C@@H]2O[C@H](CO)[C@@H](O)[C@H](O)[C@H]2O[C@H]2C[C@](C)(NCc3ccc(-c4ccc(Cl)cc4)cc3)[C@H](O)[C@H](C)O2)Oc2ccc(cc2Cl)[C@H]1O | – | VRS2 VanA VRSA, mouse neutropenic thigh infection, thigh | subcutaneous, 25 and 12.5 mg/kg once at 2 h, 26 h | – | reduction of bacterial count | ≥ 1 log10 CFU/g
Cc1ccc(-c2nc3ccc(C)cn3c2C(=O)C(=O)NCc2ccc(N(C)C)cc2)cc1 | microbial growth | SG511 | 2 mM, 20 h | – | inhibition zone | 0 mm
CC[C@H](C)[C@@H]1NC(=O)[C@@H](CCCNC(=N)N)NC(=O)[C@@H](NC(=O)[C@@H](CC(C)C)NC(=O)[C@H](C)NC(=O)[C@H](C)NC(=O)[C@@H]2CCCN2C(=O)[C@@H](CC(C)C)NC(=O)[C@@H](NC(=O)[C@@H](CCCNC(=N)N)NC(=O)[C@@H](CC(C)C)NC(=O)[C@@H](CC(C)C)NC(=O)[C@@H](NC(=O)[C@@H](CCCNC(=N)N)NC(=O)[C@@H](CC(C)C)NC(=O)[C@@H](NC(=O)[C@@H](NC(=O)CNC(=O)[C@@H](CC(C)C)NC(=O)[C@@H](N)Cc2ccccc2)[C@@H](C)O)C(C)C)C(C)C)C(C)C)CSSC[C@@H](C(=O)O)NC(=O)[C@@H](CCCNC(=N)N)NC(=O)[C@@H](CCCNC(=N)N)NC(=O)[C@H](Cc2ccccc2)NC1=O | – | MRSA NCTC 12493, Galleria mellonella larvae | 32 mg/kg, titanium implant biofilm infection | – | survival rate | 75%
CC[C@H](C)[C@H](NC(=O)CNC(=O)[C@H](CCCCN)NC(=O)[C@@H](NC(=O)[C@H](Cc1c[nH]c2ccccc12)NC(=O)[C@H](CCCCN)NC(=O)[C@H](Cc1ccccc1)NC(=O)[C@@H](NC(=O)[C@H](CCCCN)NC(=O)[C@H](CCCCN)NC(=O)[C@@H](NC(=O)[C@H](Cc1c[nH]c2ccccc12)NC(=O)[C@H](Cc1c[nH]c2ccccc12)NC(=O)[C@@H](N)CCCCN)[C@@H](C)CC)C(C)C)[C@@H](C)CC)C(=O)NCC(=O)N[C@@H](CCCCN)C(=O)N[C@@H](CCC(=O)O)C(=O)N[C@H](C(=O)N[C@H](C(=O)N[C@H](C(=O)N[C@@H](CCCNC(=N)N)C(=O)N[C@H](C(=O)NCC(=O)N[C@H](C(=O)N[C@@H](CCC(=O)O)C(=O)N[C@H](C(=O)N[C@@H](C)C(=O)N[C@@H](C)C(=O)N[C@@H](CS)C(=O)N[C@@H](CCCCN)C(=O)N[C@H](C(=O)N[C@@H](CCCCN)C(=O)NCC(=O)N[C@@H](CCC(=O)O)C(=O)N[C@@H](CS)C(N)=O)[C@@H](C)CC)[C@@H](C)CC)[C@@H](C)CC)[C@@H](C)O)[C@@H](C)CC)C(C)C)C(C)C | colony count | PBS | 20 µg/mL, 2 h | – | bactericidal rate | 100%
OB(O)c1ccc(C(F)(F)F)s1 | OD600 | USA300 fphE::Tn transposon mutant | 1 µM | baseline: wild type | growth | 69.1% and 71.9% and 83.1% and 83.9% and 78.2% and 79.4%
CC[C@H](C)[C@@H]1NC(=O)[C@H](CO)NC(=O)[C@H](CCCCN)NC(=O)[C@@H]2CSSC[C@@H](C(=O)N[C@@H](Cc3ccc(O)cc3)C(N)=O)NC(=O)[C@H](CCCCN)NC(=O)[C@@H]3CSSC[C@H](NC(=O)[C@H](CCCNC(=N)N)NC(=O)[C@H](CC(C)C)NC(=O)[C@H](CC(=O)O)NC(=O)[C@H](CC(=O)O)NC(=O)[C@H](CCC(=O)O)NC(=O)[C@H](CC(N)=O)NC(=O)[C@H](Cc4c[nH]c5ccccc45)NC(=O)[C@@H]4CCCN4C(=O)CNC(=O)[C@H](CC(N)=O)NC(=O)[C@@H](NC(=O)CNC(=O)[C@H](Cc4ccccc4)NC(=O)CN)CSSC[C@H](NC(=O)[C@H](Cc4ccc(O)cc4)NC(=O)CNC(=O)CNC(=O)[C@H](CCCCN)NC(=O)[C@H](Cc4ccc(O)cc4)NC(=O)CNC(=O)[C@H](CCCCN)NC1=O)C(=O)N[C@@H](C)C(=O)N[C@@H](CCCCN)C(=O)NCC(=O)NCC(=O)N[C@@H](Cc1ccccc1)C(=O)N[C@@H](C(C)C)C(=O)N3)C(=O)N[C@@H](Cc1c[nH]cn1)C(=O)N[C@@H](CC(N)=O)C(=O)N[C@@H](Cc1c[nH]cn1)C(=O)N2 | – | 467 | 24 h, 37 °C, 99.9% killing | – | MBC | 2 µM (≈ 8.82 µg/mL)
CC(C)C[C@H](NC(=O)[C@H](CCN)NC(=O)[C@H](CCN)NC(=O)[C@@H](Cc1ccccc1)NC(=O)[C@H](CC(C)C)NC(=O)[C@H](CCN)NC(=O)[C@H](CCN)NC(=O)[C@@H](CCN)NC(=O)CCSCCOC(=O)C(C)(C)C)C(N)=O | – | ATCC 6538 | 24 h, 37 °C | – | MBC | 128 µM (≈ 142 µg/mL)
C[C@@H](N)[C@H](O)CCCCCCCC(=O)CCCCCCCCCCCCCC[C@@H](O[C@@H]1O[C@H](CO)[C@H](O)[C@H](O)[C@H]1O)[C@H](N)CO | microbial growth, resazurin | ATCC12600 | 50 µM | – | inhibition | 98%
CC(C)C[C@H](NC(=O)[C@H](CC(C)C)NC(=O)[C@H](CCCCN)NC(=O)[C@H](Cc1ccccc1)NC(=O)[C@@H](NC(=O)[C@H](CCCNC(=N)N)NC(=O)[C@@H](N)CCCCN)C(C)C)C(=O)N[C@@H](CCCCN)C(=O)N[C@@H](CCCNC(=N)N)C(=O)N[C@@H](Cc1ccc(O)cc1)C(=O)N[C@@H](Cc1c[nH]c2ccccc12)C(=O)N[C@@H](CCCNC(=N)N)C(=O)N[C@@H](CCC(N)=O)C(=O)N[C@@H](CC(C)C)C(=O)N[C@@H](CCCCN)C(=O)N[C@@H](CCCCN)C(=O)N1CCC[C@H]1C(=O)N[C@H](C(=O)N[C@@H](CCCNC(=N)N)C(=O)NCCOCCOCC(=O)O)C(C)C | – | 01, BALB/c mice, systemic infection, serum | intraperitoneal, 10 mg/kg, 18 h, dosed 2 h post-infection | baseline: vehicle | TNF-α and IL-6 serum levels | decreased
COc1cc(OC)cc(B(O)O)c1 | crystal violet | USA300 wild type | 50 µM | baseline: wild type untreated | biofilm formation | 25% and 26.1% and 20.3%
CC(C)[C@H]1NC(=O)[C@H](Cc2ccccc2)NC(=O)[C@@H](C(C)C)NC(=O)[C@@H](C)NC(=O)[C@H](C)NC(=O)[C@@H](Cc2c(-c3ccc(-c4ccc5ccccc5c4)cc3)[nH]c3ccccc23)NC(=O)[C@@H](C)NC1=O | broth dilution | – | – | – | MIC90 | > 50 µM
CC[C@H](C)[C@@H]1NC(=O)[C@H](CO)NC(=O)C(C)(CCCCN)NC(=O)[C@@H]2CSSC[C@@H](C(=O)N[C@@H](Cc3ccc(O)cc3)C(N)=O)NC(=O)[C@H](CCCCN)NC(=O)[C@@H]3CSSC[C@H](NC(=O)[C@H](CCCNC(=N)N)NC(=O)C(C)(CC(C)C)NC(=O)[C@H](CC(=O)O)NC(=O)[C@H](CC(=O)O)NC(=O)[C@H](CCC(=O)O)NC(=O)[C@H](CC(N)=O)NC(=O)[C@H](Cc4c[nH]c5ccccc45)NC(=O)C(C)(CC)NC(=O)CNC(=O)[C@H](CC(N)=O)NC(=O)[C@@H](NC(=O)CNC(=O)[C@H](Cc4ccccc4)NC(=O)CN)CSSC[C@H](NC(=O)[C@H](Cc4ccc(O)cc4)NC(=O)CNC(=O)CNC(=O)[C@H](CCCCN)NC(=O)[C@H](Cc4ccc(O)cc4)NC(=O)[C@H]4CCCN4C(=O)[C@@H]4CCCN4C1=O)C(=O)N[C@@H](C)C(=O)N[C@@H](CCCCN)C(=O)N1CCC[C@@H]1C(=O)NCC(=O)N[C@@H](Cc1ccccc1)C(=O)N[C@@H](C(C)C)C(=O)N3)C(=O)N[C@@H](Cc1c[nH]cn1)C(=O)NC(C)(C)C(=O)N[C@@H](Cc1c[nH]cn1)C(=O)N2 (stereo partly shown) | – | ATCC 49775 | 24 h | – | MBC | 2 µM (≈ 8.92 µg/mL)
COc1cc(NC(=O)Nc2cccc(C(=O)N3CCC(C)CC3)c2)cc(OC)c1 | checkerboard | CRB, PBP4 overexpressor | 25 µM, with: ceftobiprole | baseline: ceftobiprole alone over combination | MIC fold reduction | > 2
CC[C@H](C)[C@@H]1NC(=O)[C@H](CO)NC(=O)[C@H](CCCCN)NC(=O)[C@@H]2CSSC[C@@H](C(=O)N[C@@H](Cc3ccc(O)cc3)C(N)=O)NC(=O)[C@H](CCCCN)NC(=O)[C@@H]3CSSC[C@H](NC(=O)[C@H](CCCNC(=N)N)NC(=O)[C@H](CC(C)C)NC(=O)[C@H](CC(=O)O)NC(=O)[C@H](CC(=O)O)NC(=O)[C@H](CCC(=O)O)NC(=O)[C@H](CC(N)=O)NC(=O)[C@H](Cc4c[nH]c5ccccc45)NC(=O)C(C)(CC)NC(=O)CNC(=O)[C@H](CC(N)=O)NC(=O)[C@@H](NC(=O)CNC(=O)[C@H](Cc4ccccc4)NC(=O)CN)CSSC[C@H](NC(=O)[C@H](Cc4ccc(O)cc4)NC(=O)CNC(=O)CNC(=O)[C@H](CCCCN)NC(=O)[C@H](Cc4ccc(O)cc4)NC(=O)[C@H]4CCCN4C(=O)[C@@H]4CCCN4C1=O)C(=O)N[C@@H](C)C(=O)N[C@@H](CCCCN)C(=O)N1CCC[C@@H]1C(=O)NCC(=O)N[C@@H](Cc1ccccc1)C(=O)N[C@@H](C(C)C)C(=O)N3)C(=O)N[C@@H](Cc1c[nH]cn1)C(=O)N[C@@H](CC(N)=O)C(=O)N[C@@H](Cc1c[nH]cn1)C(=O)N2 (stereo partly shown) | – | 467 | 24 h, 37 °C, 99.9% killing | – | MBC | 8 µM (≈ 35.7 µg/mL)
Cc1ccc2nc(C)c(CC(=O)NCc3ccc(N(C)C)cc3)n2c1 | microbial growth | SG511 | 2 mM, 20 h | – | inhibition zone | 0 mm
CC(C)[C@H]1NC(=O)[C@H](Cc2ccccc2)NC(=O)[C@@H](C(C)C)NC(=O)[C@@H](C)NC(=O)[C@H](C)NC(=O)[C@@H](Cc2c(-c3ccc(-c4ccc(-c5ccccc5)cc4)cc3)[nH]c3ccccc23)NC(=O)[C@@H](CO)NC1=O | broth dilution | – | – | – | MIC90 | > 50 µM
Cc1ccc2nc(C)c(C(=O)C(=O)N(C)C)n2c1 | microbial growth | SG511 | 2 mM, 20 h | – | inhibition zone | 0 mm
N=C(N)NCCC[C@H](NC(=O)[C@H](CCCNC(=N)N)NC(=O)[C@H](CCCNC(=N)N)NC(=O)[C@H](CCC(N)=O)NC(=O)[C@H](CCCNC(=N)N)NC(=O)[C@H](CCCNC(=N)N)NC(=O)[C@H](CCCCN)NC(=O)[C@H](CCCCN)NC(=O)[C@H](CCCNC(=N)N)NC(=O)CNC(=O)[C@H](Cc1ccc(O)cc1)NC(=O)[C@H](Cc1ccccc1)NC(=O)[C@H](Cc1ccccc1)NC(=O)[C@H](Cc1ccccc1)NC(=O)OCC1c2ccccc2-c2ccccc21)C(=O)O | colony counting | RAW264.7 29213 infected, 29213 | 32 µM, 4 h | – | intracellular bacteria killed | 98.3%
CCCNC(=O)[C@H](Cc1ccc(O)cc1)NC(=O)[C@H](Cc1ccc(O)cc1)NC(=O)[C@H](NC(=O)[C@@H](Cc1ccc(O)cc1)NC(=O)[C@H](CC(N)=O)NC(=O)[C@@H](Cc1ccc(O)cc1)NC(=O)[C@@H](CC(C)C)NC)c1ccc(O)cc1 | bacterial growth | – | – | – | pIC50 | < 4.40

Excerpt of the above:
Structure (SMILES) | assay | test system | conditions | how to read | endpoint | value
CC[C@H](C)[C@H](NC(=O)CNC(=O)[C@H](CCCCN)NC(=O)[C@@H](NC(=O)[C@H](Cc1c[nH]c2ccccc12)NC(=O)[C@H](CCCCN)NC(=O)[C@H](Cc1ccccc1)NC(=O)[C@@H](NC(=O)[C@H](CCCCN)NC(=O)[C@H](CCCCN)NC(=O)[C@@H](NC(=O)[C@H](Cc1c[nH]c2ccccc12)NC(=O)[C@H](Cc1c[nH]c2ccccc12)NC(=O)[C@@H](N)CCCCN)[C@@H](C)CC)C(C)C)[C@@H](C)CC)C(=O)NCC(=O)N[C@@H](CCCCN)C(=O)N[C@@H](CCC(=O)O)C(=O)N[C@H](C(=O)N[C@H](C(=O)N[C@H](C(=O)N[C@@H](CCCNC(=N)N)C(=O)N[C@H](C(=O)NCC(=O)N[C@H](C(=O)N[C@@H](CCC(=O)O)C(=O)N[C@H](C(=O)N[C@@H](C)C(=O)N[C@@H](C)C(=O)N[C@@H](CS)C(=O)N[C@@H](CCCCN)C(=O)N[C@H](C(=O)N[C@@H](CCCCN)C(=O)NCC(=O)N[C@@H](CCC(=O)O)C(=O)N[C@@H](CS)C(N)=O)[C@@H](C)CC)[C@@H](C)CC)[C@@H](C)CC)[C@@H](C)O)[C@@H](C)CC)C(C)C)C(C)C | colony count | PBS | 20 µg/mL, 2 h | – | bactericidal rate | 100%
